Published values from different studies.
Compare with care: the assays were run in different laboratories. ± gives the spread as reported.

CO[C@H]1O[C@H](COS(=O)(=O)O)[C@@H](O[C@@H]2O[C@@H](C(=O)O)[C@@H](O[C@H]3O[C@H](COS(=O)(=O)O)[C@@H](O[C@@H]4O[C@H](C(=O)O)[C@@H](O[C@H]5O[C@H](COS(=O)(=O)O)[C@@H](O)[C@H](O)[C@H]5NS(=O)(=O)O)[C@H](O)[C@H]4O)[C@H](OS(=O)(=O)O)[C@H]3NS(=O)(=O)O)[C@H](O)[C@H]2OS(=O)(=O)O)[C@H](O)[C@H]1NS(=O)(=O)O — bioavailability (male Wistar rat, plasma; oral, 5 mg/kg): 1.41%
CC[C@H](C)[C@H](NC(=O)[C@H](Cc1ccccc1)NC(=O)[C@H](CCC(=O)O)NC(=O)[C@H](CCCCNC(=O)COCCOCCNC(=O)COCCOCCNC(=O)CC[C@H](NC(=O)CCCCCCCCCCCCCCCCC(=O)O)C(=O)O)NC(=O)[C@H](C)NC(=O)[C@H](C)NC(=O)[C@H](CCC(N)=O)NC(=O)CNC(=O)[C@H](CCC(=O)O)NC(=O)[C@H](CC(C)C)NC(=O)[C@H](Cc1ccc(O)cc1)NC(=O)[C@H](CO)NC(=O)[C@H](CO)NC(=O)[C@@H](NC(=O)[C@H](CC(=O)O)NC(=O)[C@H](CO)NC(=O)[C@@H](NC(=O)[C@H](Cc1ccccc1)NC(=O)[C@@H](NC(=O)CNC(=O)[C@H](CCC(=O)O)NC(=O)C(C)(C)NC(=O)[C@@H](N)Cc1cnc[nH]1)[C@@H](C)O)[C@@H](C)O)C(C)C)C(=O)N[C@@H](C)C(=O)N[C@@H](Cc1c[nH]c2ccccc12)C(=O)N[C@@H](CC(C)C)C(=O)N[C@H](C(=O)N[C@@H](CCCNC(=N)N)C(=O)NCC(=O)N[C@@H](CCCNC(=N)N)C(=O)NCC(=O)O)C(C)C — AUC(0-168 h) (healthy male Caucasian subjects, plasma; subcutaneous, 1.0 mg, steady state, once weekly, geometric mean): 7.49 µM·h
S=C(NCCCc1c[nH]cn1)NCCCN(Cc1ccc(Cl)c(Cl)c1)c1ccc(Br)cn1 — concentration (male C57BL/6 mouse, plasma; intraperitoneal, 30 mg/kg, 12 h): 109 ng/mL
CCCCNC(=O)CN1CCN(CC(=O)[O-])CCN(CC(=O)[O-])CCN(CC(=O)[O-])CC1.[67Ga+3] — intact radiolabelled complex (RP-TLC; murine plasma; 3 h, 37 °C, 5% CO2): 96.1 ± 0.6%
CNC(=O)c1cc(Oc2ccc(NC(=O)Nc3ccc(Cl)c(C(F)(F)F)c3)cc2)ccn1 — t1/2 (LC-MS/MS; nude mouse subcutaneous tumour model, tumour tissue; intratumoral, 2 mg/kg, PDC 3 miR-3609 + EPAS-1 mutant): 26.7 ± 6.89 h
C[C@H]1O[C@@H](O[C@H]2[C@@H](O)C[C@H](O[C@H]3[C@@H](O)C[C@H](O[C@H]4CC[C@@]5(C)[C@H](CC[C@@H]6[C@@H]5C[C@@H](O)[C@]5(C)[C@@H](C7=CC(=O)OC7)CC[C@]65O)C4)O[C@@H]3C)O[C@@H]2C)C[C@H](O)[C@@H]1O — serum concentration increase (patients, serum; oral, dose not given, together with: P-gp inhibitors; reference: without P-gp inhibitors): 20 to 60%
O=C(O)CCCCC(=O)O — free concentration ratio (human hemodialysis patients, plasma ultrafiltrate; pre-treatment; reference: hemodialysis over normal subjects): 23
CC(C)Cc1ccc(C(C)C(=O)O)cc1 (stereo not drawn) — EC20 (cytochrome c release, ELISA; BALB/cByJ female mouse liver mitochondria; 30 min; reference: alamethicin maximal release): > 200 µM
COc1cccc(-c2ccc(NC(=O)C3=C(C(=O)O)CCC3)c(F)c2)c1 — AUC(0-24h) (human, male, plasma; oral, 40 mg once daily, day 0, geometric mean): 78300 ng·h/mL
O=C(c1cccnc1-c1ccncc1)N1CCC(O)(Cc2ccccc2)CC1 — AUCinf (healthy human, plasma; oral, 100 mg once daily, day 1, arithmetic mean): 451 ng·h/mL
C[C@]12CC[C@@H]3c4ccc(O)cc4CC[C@H]3[C@@H]1C[C@@H](O)[C@@H]2O — minimum serum concentration (GC-MS; breast cancer women on NSAI, serum; vaginal, 0.03 mg daily, 0.5 h, day 28): 0 ng/mL
C=CC(=O)Nc1cc(Nc2nccc(-c3cn(C)c4ccccc34)n2)c(OC)cc1N(C)CCN(C)C — apparent volume of distribution (Sprague-Dawley rat, male, plasma; oral, 10 mg/kg, together with: avitinib 30 mg/kg single dose on day 7): 71.7 ± 28 L/kg
CNC(C)C1CCC(N)C(OC2C(N)CC(N)C(OC3OCC(C)(O)C(NC)C3O)C2O)O1 (stereo not drawn) — EC20 (cytochrome c release, ELISA; BALB/cByJ female mouse liver mitochondria; 30 min; reference: alamethicin maximal release): > 200 µM
C[C@@H](Oc1ccc(S(C)(=O)=O)cc1C(=O)N1C[C@@H]2C[C@]2(c2cc(C(F)(F)F)on2)C1)C(F)(F)F — AUC(0-167 h) (healthy men, plasma; oral, dose not given, adjusted geometric mean, together with: itraconazole): 27.2 µM·h
CNS(=O)(=O)Cc1ccc2[nH]cc(CCN(C)C)c2c1 — EC20 (cytochrome c release, ELISA; BALB/cByJ female mouse liver mitochondria; 30 min; reference: alamethicin maximal release): > 400 µM
CONC(=N)c1ccc(-c2ccc(-c3ccc(C(=N)NOC)cc3)o2)cc1 — intrinsic clearance (M1 formation by O-demethylation, substrate; pooled human intestinal microsomes; high-Km component): 10 µL/min/mg
Cc1cc2nc3c(=O)[nH]c(=O)nc-3n(C[C@H](O)[C@H](O)[C@H](O)CO)c2cc1C — EC20 (cytochrome c release, ELISA; BALB/cByJ female mouse liver mitochondria; 30 min; reference: alamethicin maximal release): > 400 µM
CS(=O)(=O)n1cc2c(n1)CN([C@H]1CO[C@H](c3cc(F)ccc3F)[C@@H](N)C1)C2 — Ctrough (healthy Japanese men, plasma; oral, 1 mg once weekly, day 15): 4.56 nM
COc1cc(CCC(=O)O)ccc1O[C@@H]1O[C@H](C(=O)O)[C@@H](O)[C@H](O)[C@H]1O — mean concentration (human, fasted baseline, cerebrospinal fluid): 1.7 nM
CN[C@H]1C(=O)N[C@@H]2Cc3ccc(cc3)Oc3cc4cc(c3O[C@@H]3O[C@H](C(=O)O)[C@@H](O)[C@H](O)[C@H]3NC(=O)CCCCCCCCC(C)C)Oc3ccc(cc3Cl)[C@@H](O)[C@@H]3NC(=O)[C@H](NC(=O)[C@@H]4NC(=O)[C@@H](NC2=O)c2cc(cc(O)c2Cl)Oc2cc1ccc2O)c1ccc(O)c(c1)-c1c(O[C@H]2O[C@H](CO)[C@@H](O)[C@H](O)[C@@H]2O)cc(O)cc1[C@@H](C(=O)NCCCN(C)C)NC3=O — non-renal clearance (population PK model; human patients; intravenous, 1500 mg): 0.031 L/h
Cc1c2oc3c(C)ccc(C(=O)N[C@@H]4C(=O)N[C@H](C(C)C)C(=O)N5CCC[C@H]5C(=O)N(C)CC(=O)N(C)[C@@H](C(C)C)C(=O)O[C@@H]4C)c3nc-2c(C(=O)N[C@@H]2C(=O)N[C@H](C(C)C)C(=O)N3CCC[C@H]3C(=O)N(C)CC(=O)N(C)[C@@H](C(C)C)C(=O)O[C@@H]2C)c(N)c1=O — AUC(0-6h) (mouse, Abcc2 knockout FVB, plasma; intravenous, 0.5 mg/kg): 115 ng·h/mL
CCOc1ccc2c(c1)C(C)=CC(C)(C)N2 — residue concentration (LC-MS/MS; laying hens, liquid whole egg; oral, 50 mg/kg feed, 56 days): 21.2 ± 3.1 ng/g
CN(c1ccccc1)c1nccc(-c2cnn3ncccc23)n1 — intrinsic clearance (rat liver microsomes): 340 µL/min/mg
CN1CCN(c2ccc(Nc3ncc4cc(C#N)c(=O)n(C5CCCC5)c4n3)cc2)CC1 — tissue/plasma ratio (NIH Swiss nude mice, intracerebral U87 tumour, normal brain; intravenous, 25 mg/kg, together with: gefitinib 200 mg/kg oral 1 h before; reference: AUC brain over AUC plasma): 3.1
COc1cccc2c1C(=O)c1c(O)c3c(c(O)c1C2=O)C[C@@](O)(C(=O)CO)C[C@@H]3O[C@H]1C[C@H](N)[C@H](O)[C@H](C)O1 — Tmax (mouse, E0771 tumour-bearing, tumor; intravenous, 92 µmol/kg): 2 h
CC(=O)N[C@@H](Cc1ccccc1)C(=O)N[C@H]1CCCNC(=O)[C@H](CCCNC(=N)N)NC(=O)[C@H](Cc2c[nH]c3ccccc23)NC(=O)[C@@H](CC2CCCCC2)NC(=O)[C@@H]2CCCN2C1=O — elimination half-life (C57BL/6J mice, plasma; intravenous, 1 mg/kg): 5.99 min
Cn1c(=O)c2c(ncn2C)n(C)c1=O — EC20 (cytochrome c release, ELISA; BALB/cByJ female mouse liver mitochondria; 30 min; reference: alamethicin maximal release): > 400 µM
C[C@H](Oc1ccc(-c2nc(-c3ccc4[nH]cnc4c3)no2)cc1C(F)(F)F)C(F)(F)F.Cl — predose plasma concentration (cynomolgus monkey aneurysm model, plasma; 0.1 mg/kg once daily, 2 weeks dosing): 7.4 ± 1.2 nM
COc1cccc(N2CCN(C3=Nc4c(F)cccc4[C@H](CC(=O)O)N3c3cc(C(F)(F)F)ccc3OC)CC2)c1 — clearance (UHPLC-MS/MS; healthy women, plasma; intravenous infusion, 720 mg single dose, 60 min infusion, HPβCD formulation): 72.7 ± 9.41 mL/min
NC(=O)CC[C@@H]1NC(=O)[C@H](Cc2ccccc2)NC(=O)[C@H](Cc2ccc(O)cc2)NC(=O)CCSSC[C@@H](C(=O)N2CCC[C@H]2C(=O)N[C@H](CCCN=C(N)N)C(=O)NCC(N)=O)NC(=O)[C@H](CC(N)=O)NC1=O — processed sample stability (UPLC-MS/MS; processed plasma extract; 3.05 pg/mL, 48 h, 10 °C, autosampler): 95.1%
N#Cc1ccnc(N2C(=O)CC[C@H]2C(=O)N(c2cncc(F)c2)[C@H](C(=O)NC2CC(F)(F)C2)c2ccccc2Cl)c1 — accumulation ratio Cmax (human newly diagnosed mIDH AML, plasma; oral, 500 mg once daily, together with: induction chemotherapy; reference: cycle 1 day 14 over day 1): 1.69
C[C@](C#N)(COc1cc(C#N)ccc1C(F)(F)F)NC(=O)c1ccc(SC(F)(F)F)cc1 — absorption half-life (parasitized calves, plasma; oral, 2.5 mg/kg): 1.74 ± 0.66 h
CO/N=C1\C[C@]2(C[C@@H]3C[C@@H](C/C=C(\C)C[C@@H](C)/C=C/C=C4\CO[C@@H]5[C@H](O)C(C)=C[C@@H](C(=O)O3)[C@]45O)O2)O[C@H](/C(C)=C/C(C)C)[C@H]1C — drug concentration (HPLC; lamb, cranial jejunum mucosa; intraruminal, 0.2 mg/kg, 0.5 days post-treatment): 231 ± 83 ng/g
CCCC[C@H](NC(C)=O)C(=O)N[C@H]1CCC(=O)NC[C@@H](C(=O)N[C@@H](Cc2c[nH]c3ccccc23)C(N)=O)NC(=O)[C@H](CCCNC(=N)N)NC(=O)[C@@H](Cc2ccccc2)NC(=O)[C@H](Cc2c[nH]cn2)NC1=O — Tmax (beagle dog, female, plasma; subcutaneous, 8.0 mg/kg daily, day 14): 0.63 h
Nc1ccc(S(=O)(=O)c2ccc(N)cc2)cc1 — EC20 (cytochrome c release, ELISA; BALB/cByJ female mouse liver mitochondria; 30 min; reference: alamethicin maximal release): > 400 µM
CCCCCCCCCCCCCCC[C@H](O)[C@@H](N)CO — AUC (human, phase I, plasma; intravenous, 120 mg/m^2, day 1, monotherapy): 21.2 µM·h
CS(=O)(=O)OCCCCOS(C)(=O)=O — EC20 (mitochondrial swelling; BALB/cByJ female mouse liver mitochondria; 30 min, together with: succinate + rotenone; reference: CaCl2 maximal swelling): > 800 µM
[11CH3]c1cnccc1N — brain to blood SUV ratio (ex vivo gamma counting; Sprague Dawley rat, whole brain and blood; intravenous, dose not given, 60 min): 1.85 ± 0.23
CCCC[C@@H]1NC(=O)[C@@H](NC(=O)[C@H](CCC(=O)O)NC(=O)CNC(=O)CN2CCN(CC(=O)O)CCN(CC(=O)O)CCN(CC(=O)O)CC2)CCCCNC(=O)C[C@@H](C(N)=O)NC(=O)[C@H](C(C)C)NC(=O)[C@@H]2CCCN2C(=O)[C@H](CCCNC(=N)N)NC(=O)CNC(=O)[C@H](Cc2c[nH]c3ccccc23)NC(=O)[C@H](CCCNC(=N)N)NC(=O)[C@@H](Cc2ccccc2)NC(=O)[C@H](Cc2c[nH]cn2)NC(=O)[C@H](CCC(=O)O)NC1=O [indium-111 labelled] — tissue uptake (normal C57 mice, blood; intravenous, 0.037 MBq, 24 h): 0.03 ± 0.02 %ID/g
CNC(=O)c1ccc(-c2cnc3ncc(Cc4ccc5ncccc5c4)n3n2)cc1F — CL/F (healthy human subjects, plasma; oral, 400 mg, geometric mean, together with: rifampicin 600 mg/day): 103 L/h
CC(C)[C@H](NC(=O)[C@@H]1CCCN1C(=O)[C@H](CCCNC(=N)N)NC(=O)[C@H](CS)NC(=O)[C@H](Cc1c[nH]c2ccccc12)NC(=O)[C@H](CCCNC(=N)N)NC(=O)[C@@H](Cc1ccccc1)NC(=O)[C@H](Cc1c[nH]cn1)NC(=O)[C@H](CCC(=O)O)NC(=O)[C@H](CS)NC(=O)[C@H](CS)NC(=O)[C@H](CCCCN)NC(=O)[C@@H]1CC(=O)N[C@@H](CCCNC(=N)N)C(=O)N[C@@H](C(C)C)C(=O)N[C@@H](CC(=O)O)C(=O)N[C@H](Cc2ccc(O)cc2)C(=O)N1)C(N)=O [technetium-99m labelled] — serum stability (radio-HPLC; mouse serum; 24 h, 37 °C): stable
CCCOc1ccc([C@H]2CNC(=O)N2c2ccc3[nH]cnc3c2)cc1 — AUC(0-inf) (human, plasma; oral, 10 mg, single dose, fasted): 66.1 ng·h/mL
COc1cc2ncnc(Nc3ccc(F)c(Cl)c3)c2cc1OCCCN1CCOCC1 — EC20 (mitochondrial swelling; BALB/cByJ female mouse liver mitochondria; 30 min, together with: succinate + rotenone; reference: CaCl2 maximal swelling): 63.6 µM
CS(=O)(=O)n1cc2c(n1)CN([C@H]1CO[C@H](c3cc(F)ccc3F)[C@@H](N)C1)C2 — concentration at 168 h (healthy male human, plasma; oral, 12.5 mg single, fasted, geometric mean): 10.8 nM
Cn1c(-c2ccc(C(N)=O)cc2F)nnc1C(C)(C)Oc1c(F)cc(Cl)cc1F — AUC(0-tau) range (healthy young Japanese subjects, plasma; oral, 10 mg once daily, day 18, 14 days dosing): 1010 to 3310 ng·h/mL
